Results from different studies.
Numbered parts are unrelated; each lists some results of a single study. Changes are numbered by the printed parent chain.

Sample 1 — technique: RNAcompete; form: RNA; sample: in vitro; tested at: 20 nM; setting: 7-mer, probes averaged, single round; reference: mean of 7-mers; direction: higher = stronger binding
Target: PABPC1L2, full length, GST fusion (mouse, UniProt A0ABA7IW68)
Construct (chain): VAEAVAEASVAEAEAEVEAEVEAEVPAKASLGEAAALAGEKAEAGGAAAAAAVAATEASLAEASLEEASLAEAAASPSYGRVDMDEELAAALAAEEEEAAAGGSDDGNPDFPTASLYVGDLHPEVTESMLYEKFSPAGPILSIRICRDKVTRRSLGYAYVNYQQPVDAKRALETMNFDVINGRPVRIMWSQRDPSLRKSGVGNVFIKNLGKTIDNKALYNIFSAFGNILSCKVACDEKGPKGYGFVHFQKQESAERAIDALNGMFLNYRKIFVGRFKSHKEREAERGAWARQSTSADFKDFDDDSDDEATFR
The 7-mer Z-score of `AGGCCCA` is reported as -0.0645.
With `CGUACAA` the 7-mer Z-score was 0.104.
For `AAUAGUU`, the 7-mer Z-score was 0.075.
`GCCCCCA` gave a 7-mer Z-score of -0.403.
`GAACGGC` has a 7-mer Z-score of 0.0442.
`UUAUGUG` has a 7-mer Z-score of -0.0844.
With `GCUACAC` the 7-mer Z-score was -0.0591.
`AAAACUU` has a 7-mer Z-score of 3.73.

Sample 2 — technique: RNA Bind-n-Seq; form: RNA; sample: in vitro; tested at: 365 nM; reference: no-protein control; direction: higher = stronger binding
Target: RNA binding protein fox-1 homolog 2, RRM domain, GST-SBP tag (RBFOX2, Homo sapiens, UniProt O43251-10, residues 100-194)
Setting: natural RNA segment, single round, ends assumed
Target sequence (chain): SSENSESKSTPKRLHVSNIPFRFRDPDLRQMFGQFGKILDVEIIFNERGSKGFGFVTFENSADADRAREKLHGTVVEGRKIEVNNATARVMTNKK
`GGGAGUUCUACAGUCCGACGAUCUUUCCAAAAUUUUCAUGGGGCUUGUGGCAACACGGGCCGUGAAUCUGUGUAUAAAAUUUACUGGCCUUCUUCACUUACCUGCUCUAGUAUCGUAUCGUGUGUGCGUGCGUUGGAAUUCUCGGGUGCCAA`: “RBNS enrichment (R)” 0.35.
For `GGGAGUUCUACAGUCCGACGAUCAUUGUAAAGUGUACUCUAGAGCCAGAUCAGGUGCACUAAAGUUUAUAGAGGUUCCAGUUUACAAACUCAAGUGAACAGUAAUCUUUGGAAGCUGCCAGUCUAAAUUCUAAUGGAAUUCUCGGGUGCCAA`, “RBNS enrichment (R)” read 0.399.
`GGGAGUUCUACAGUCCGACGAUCCAAUGAAAUGUCACAUUAUUCAUCCUGAGUCCGAGACUCAAAUUUUCUGCCCCAGCCAAAAUAAUCUUGUGCCAAAAGAUUAAAGGUUUGCCUCAAAAUGUCCCUGUUUGUGGAAUUCUCGGGUGCCAA` — result for “RBNS enrichment (R)”: 0.667.
`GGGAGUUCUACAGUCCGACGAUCCCUUCCUCCGCCAUCUGACUUCUCUAAAGCCAUCUCUCUGGAGGCUGAGGAAGCUGUGGUAACCAUUUCCCCACUCAUUCUGAGAGCCUUCUGUAAGCACUGACCUGGGUUGGAAUUCUCGGGUGCCAA`: “RBNS enrichment (R)” 0.381.
`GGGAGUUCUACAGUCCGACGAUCUGUAUGAAUUGCUGUGCUGCAAAGCCAAACAGCUGCAAAAUGUUGAAAAAUCAUCGAAAUGUAUAAAAAUUGCAGUAUCUUUAAAAUCAGUAAAAUGGACUAGCAUAUUAUGGAAUUCUCGGGUGCCAA` — result for “RBNS enrichment (R)”: 2.27.
For `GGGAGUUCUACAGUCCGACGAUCGCAUCUGAUUGGCAGGCAGGCCCAGGAUGUGCUGUGCCAAAGCCAGGUCUACUCCAAAGUCCUCUCUGCCAUCUUCGGACCAUCCUGGCCCUACUUCUGUGUGCUCGAGCUGGAAUUCUCGGGUGCCAA`, “RBNS enrichment (R)” read 0.354.
`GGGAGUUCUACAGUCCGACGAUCUGGGACACCCCAGGCAUGCUCUCAAACUAGUCAUGGGGCCUUCUGAGGACAGUUCCAUCCUACCUUUGUCCUUCCCUGGUACAGCCUGUGACCCUGGCACACUGCACAUGUGGAAUUCUCGGGUGCCAA` — result for “RBNS enrichment (R)”: 1.27.
Under “RBNS enrichment (R)”, `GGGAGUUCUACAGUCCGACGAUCGUUAUACAUGGUUGGGGUUUAAAAGCACAAAGAGAAACCUCCCCCUCCUGGCUUUCGUGGCCAUCUUUGUCCAUCUUAGGUGGGGACUUGAUCUUAUUUAAGGUCUCCAAUGGAAUUCUCGGGUGCCAA` is recorded as 0.217.

Sample 3 — technique: RNA Bind-n-Seq; form: RNA; sample: in vitro; tested at: 1 µM; setting: whole 134-nt RNA, ends assumed; together with: 150 mM KCl; reference: input library; direction: higher = stronger binding
Target: Ras GTPase-activating protein-binding protein 1, RRM domain (G3BP1, Homo sapiens, UniProt Q13283)
UniProt Q13283, sequence (whole entry, looked up): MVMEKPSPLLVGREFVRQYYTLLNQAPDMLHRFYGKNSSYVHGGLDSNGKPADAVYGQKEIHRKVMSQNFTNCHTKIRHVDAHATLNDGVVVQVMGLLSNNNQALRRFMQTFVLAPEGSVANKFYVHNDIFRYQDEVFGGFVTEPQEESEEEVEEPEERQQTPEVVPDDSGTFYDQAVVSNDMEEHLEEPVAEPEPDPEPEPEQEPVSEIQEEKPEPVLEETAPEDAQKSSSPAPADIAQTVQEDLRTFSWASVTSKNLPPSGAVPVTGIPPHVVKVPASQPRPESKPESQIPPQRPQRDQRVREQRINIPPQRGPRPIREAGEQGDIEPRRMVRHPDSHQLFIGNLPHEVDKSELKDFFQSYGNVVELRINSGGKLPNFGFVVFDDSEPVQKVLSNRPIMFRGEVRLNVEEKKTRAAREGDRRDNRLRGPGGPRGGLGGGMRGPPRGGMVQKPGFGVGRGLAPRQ
The log2 enrichment of `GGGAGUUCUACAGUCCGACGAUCCAAGUCCUGUGCUACACAUCGUAUGUACCGAAUCGGUUUUUUUGGAAAGGUUUGGAAAGUAUUAUGUUACGCCGUUCGGAUCUGCACUUCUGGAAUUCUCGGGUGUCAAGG` is reported as -0.44.
For `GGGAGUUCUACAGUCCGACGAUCUCAAGUCCUGUGCUACACAUCGUAUGUACCGAAUCGGGCCCGGCCCGGCCCGGGGAAAGUAUUAUGUUACGCCGUUCGGAUCUGCACUUCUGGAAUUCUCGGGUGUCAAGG`, the log2 enrichment was -0.669.
The log2 enrichment of `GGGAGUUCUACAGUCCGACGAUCUCCUGUGCUACACAUCGUAUGUACCGAAUCGGUUUUUUGGGUUUUUUGGGGUUUUUUGGAAAGUAUUAUGUUACGCCGUUCGGAUCUGCAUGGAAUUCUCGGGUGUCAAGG` is reported as -0.177.
`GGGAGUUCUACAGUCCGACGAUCUCAAGUCCUGUGCUACACAUCGUAUGUACCGAAUCGGGUUGGGGUUGGGGUUGGAAAGUAUUAUGUUACGCCGUUCGGAUCUGCACUUCCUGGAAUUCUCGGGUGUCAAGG` gave a log2 enrichment of -0.0444.
`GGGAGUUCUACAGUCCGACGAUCUCAAGUCCUGUGCUACACAUCGUAUGUACCGAAUCGGGUUUGGUUUGGUUUGGGAAAGUAUUAUGUUACGCCGUUCGGAUCUGCACUUCCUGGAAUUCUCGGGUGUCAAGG` has a log2 enrichment of -0.323.
`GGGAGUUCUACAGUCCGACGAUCCAAGUCCUGUGCUACACAUCGUAUGUACCGAAUCGGAGGUUUUUUUGGAAAAAGGAAAGUAUUAUGUUACGCCGUUCGGAUCUGCACUUCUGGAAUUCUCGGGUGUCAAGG` has a log2 enrichment of -0.229.
The log2 enrichment of `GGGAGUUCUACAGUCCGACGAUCUGGCCUUAUCACUCCUGGAGGCUUUUCAUCAGUGCCUGCUGGAAUGGAGACCCCUGAACUCAUUGAGCUGAGGAAGAAGAAGAUUGAGGAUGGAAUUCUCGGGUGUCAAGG` is reported as -0.394.
`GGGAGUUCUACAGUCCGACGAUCUAACUUUAGAGGAGGAUCUGAUGGAUAUGGCAGUGGACGUGGCUUUGGGGAUGGCUAUAAUGGGUAUGGAGGAGGACCUGGAGGUGGCAAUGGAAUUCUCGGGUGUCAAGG` gave a log2 enrichment of -0.585.

Single results of other studies — starting sequence: viral docking peptide; KGVKRKLFAEDSS
Under “normalised enrichment score”, `KGCKRKLFAEDSS [V3C]` is recorded as 2.34 (CCND1, cyclin fold, Cln2 fusion (human); yeast growth competition, sequencing; yeast; strong parent motif; reference: not given, higher = stronger binding).

Repeated from above (single results of other studies):
Under “normalised enrichment score”, `KGCKRKLFAEDSS [V3C]` is recorded as 2.34 (CCND1, cyclin fold, Cln2 fusion (human); yeast growth competition, sequencing; yeast; strong parent motif; reference: not given, higher = stronger binding).
